Experimental data gathered from unrelated publications.
Parts stem from different laboratories: compare values within a part only. Positions count from the first letter of the parent shown.

Sample 1 — target: CCNE2, cyclin fold, Cln2 fusion (human); method: yeast growth competition, sequencing; sample: yeast; setting: weak parent motif; relative to: not given; direction: higher = stronger binding
Starting sequence: MICAL3 docking peptide (human); LQLRRQLSFSEDS
Substitution	normalised enrichment score
S10V	0.367
R4Y	0.302
F9P	0.0536
D12M	0.542
S10G	0.616
E11T	0.496
F9I	0.181
S8D	0.172
Q6T	0.0112
Q2V	0.544
R4M	-0.273
E11W	0.62
F9K	0.465

Sample 2 — method: DHFR PCA, deep sequencing; sample: yeast; together with: (+)-ABA 0.0091 µM; relative to: wild-type fitted maximum; direction: higher = stronger binding
Target: ABI1, truncated, D143A, DHFR fusion (Arabidopsis thaliana)
Setting: methotrexate growth selection, single substitutions
Starting sequence: PYL1, truncated, DHFR fusion (Arabidopsis thaliana); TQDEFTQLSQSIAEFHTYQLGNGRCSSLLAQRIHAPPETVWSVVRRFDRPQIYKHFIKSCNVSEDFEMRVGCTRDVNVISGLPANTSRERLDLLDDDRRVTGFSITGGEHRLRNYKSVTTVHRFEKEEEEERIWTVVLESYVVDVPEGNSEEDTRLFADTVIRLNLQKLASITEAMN
Substitution	relative binding score [%]
V43M	4.9
L29N	-0.177
V62Q	-7.06
V161D	2.18
L20V	60.4
S87M	38.4
A35S	-1.58
V44H	1.51
R45G	-0.348
S26L	4.91
H34G	4.02

Sample 3 — method: RNA Bind-n-Seq; form: RNA; sample: in vitro; tested at: 365 nM; relative to: no-protein control; direction: higher = stronger binding
Target: RNA binding protein fox-1 homolog 2, RRM domain, GST-SBP tag (RBFOX2, Homo sapiens, UniProt O43251-10, residues 100-194)
Setting: natural RNA segment, single round, ends assumed
Constant ends, left off below: GGGAGUUCUACAGUCCGACGAUC … UGGAAUUCUCGGGUGCCAA
Target sequence (chain): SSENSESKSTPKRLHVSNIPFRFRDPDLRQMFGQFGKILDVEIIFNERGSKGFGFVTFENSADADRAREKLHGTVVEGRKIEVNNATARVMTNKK
Sequence	RBNS enrichment (R)
CUUGCGCCAGCUCAGAGGCCUGCCUCUAUGGUCCAGUGCAUCCCCGCUGUGCUCAGAUGCUGACGAGACUCCUUUGCUAGACUCCCCUAGUUAGGGCCUCUGCAGCUUAU	0.278
GCAGAUCCAGGCCUGUGGCUCGGCCCCGCUCAGCCCCAUAGUGGGUGGCAGCAGUGCUCUCUCCUGCCUCCUGCGGACUCAGGUCUCUGGGGCUGCUCACUAGGCCUUGU	0.225
AAACUGUUAACCAUGUACAAUAUUGGAAAUAGGCUGAUUUUGAUGUAUUGCCUAUUCUUCAAGUACACAAAAACAUUUUGGAGGCCUCAAUUAUGAGUGGCAGAGCUUUC	0.291
GCGAGGCAAGGGUUGCACUGGACCAAAGGCUGAGGCUUGGCCAUCUAGCAUUCCAUACAAAAUUGUUUCCUAUAAGCAUUCCUUUUAUUCUCUAUUCUAUCCUGGGUCUG	0.729
UUGAGAUAGCUGUAGUGUUUAUGCCAGAAGUCUCUGGGGACAUCUACUGCUUGUGUCUCUUUGGUGCAAUAAUUAAAAUGGAAGGAGGAGCUGAACUGGGAACCCUACAG	0.493
AUCUAACCAUGUGCAAUGUGUCCUUAAUAAGCUUUGAGUAUCUUACAGCUUGCCUUUUUAAUGUUAGUCACAAUGUUUUUGUGGUUUGAAGUUUAGUUUAAUGUUAGUGC	0.531
GUUUUCCAAGAGUGUACCAUUAACUUGAUUGUUGAUAAUAAAAAGAAAAAGCAAGUCUAAGCAAGUACCUCUCUGGACUUUCUCUUGAGCUUUCUUAUUUAAAUCAAUCU	0.365
AAAUGUCGACUCAGCUAACCAUAUGUCCAGGUUGCUGCAGAGUUUCUUUCAAAUCUGAGUGUUGCCUGCUGAACUCGGAGGGGAGUUUGGAGAAAUUUUAGACAGCAGCU	7.7

Sample 4 — method: protein-binding microarray; form: double-stranded DNA, one strand shown; sample: in vitro; tested at: 250 nM; setting: 60-bp whole probe; together with: salmon DNA 0.4 mg/ml; relative to: random background probes; direction: higher = stronger binding; constant ends, left off below: GCCTAGCAC … GTCTTGATTCGCTTGACGCTGCTG
Target: Interferon regulatory factor 7, full length, phosphomimetic (IRF7, Homo sapiens, UniProt Q92985, residues 1-503, S101K/S471D/S472D/S475D/S476D/S477D/S483D/S484D/S487D)
Construct (chain): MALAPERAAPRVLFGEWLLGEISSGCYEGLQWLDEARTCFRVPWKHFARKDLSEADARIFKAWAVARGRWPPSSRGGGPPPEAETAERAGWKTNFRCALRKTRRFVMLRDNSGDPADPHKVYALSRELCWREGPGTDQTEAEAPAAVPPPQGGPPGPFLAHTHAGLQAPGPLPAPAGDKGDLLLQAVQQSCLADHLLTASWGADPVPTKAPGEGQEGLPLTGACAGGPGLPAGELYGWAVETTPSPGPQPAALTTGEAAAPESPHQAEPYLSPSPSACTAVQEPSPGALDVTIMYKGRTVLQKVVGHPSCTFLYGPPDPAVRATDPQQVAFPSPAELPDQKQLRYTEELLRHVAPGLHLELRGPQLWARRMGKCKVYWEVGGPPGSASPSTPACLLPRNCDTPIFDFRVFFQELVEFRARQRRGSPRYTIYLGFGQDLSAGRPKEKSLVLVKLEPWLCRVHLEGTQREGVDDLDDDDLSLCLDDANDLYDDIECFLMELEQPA
Sequence	log fluorescence [z-score]
GACGGACTGGGTATCGGGGCGTGCTAG	-0.276
TTATTTATAAATTATCTTTAAGTGCTA	1.11
GACGATATCAGTCTCGAGTCGTGCTAG	1.75
GACGGTATGGGGTATCGGGACGTGCTA	-0.366
GCACATGAGCCAAGCCTGCCGTGCTAG	-0.298
TCAGTTTTGAGCTCTGTCACTGTGCTA	0.119
GACGGCTTCGGTATCGGGACGTGCTAG	-0.11
GACGGACTGGGGTTTCGGGAAGTGCTA	-0.0171
GACGGTCGCCTTCTCCTGACGTGCTAG	-0.722
TTTGGTCTCGGTTTCGGTTAGTGCTAG	11
AACGATTCCAGTTTCGAGACGTGCTAG	5.17
TCAATTCCTGATCTCTGACTGTGCTAG	0.93
GTCGGTCTCCTACTGCTGACGTGCTAG	0.218
GACGGTCTCGGTCTCGCGACGTGCTAG	0.81
TATGCTTTCTTTAACTCATTGTGCTAG	0.337
GTCGATATCAGTCTCGAGACGTGCTAG	0.981
GACGGCTTCGGACTGGGGACGTGCTAG	-0.352
ACACTTTCCCCTTCCTAGTTGTGCTAG	2.67
TTAGATCTCAGACGGGATTAGTGCTAG	-0.103

A few entries again (sample 1):
Substitution	normalised enrichment score
F9I	0.181
S8D	0.172
Q6T	0.0112
Q2V	0.544
R4M	-0.273
E11W	0.62
F9K	0.465
